Results of several laboratories.
Numbered parts are unrelated; each lists some results of a single study.

Set 1
Target: Histone acetyltransferase KAT6A, winged helix 2, GST fusion (KAT6A, Homo sapiens, UniProt Q92794, residues 85-181)
Technique: protein binding microarray
Molecule type: double-stranded DNA, one strand shown
Medium: in vitro
Concentration: not given
Setting: 8-mer, flanks averaged, mean of 2 arrays, mostly near background
Reference: not given
Direction: higher = stronger binding
Construct (chain): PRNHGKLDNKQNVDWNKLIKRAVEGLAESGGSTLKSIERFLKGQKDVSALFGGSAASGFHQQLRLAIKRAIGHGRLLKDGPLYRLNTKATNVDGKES
Strand | E-score
ACGGGGCA | -0.0343
AGTATCGA | 0.0678
AAGATCCA | 0.137
AGGGATAC | -0.0697
ATTATAAA | 0.0509
CCTAGTAC | -0.0314
GATTTTCC | 0.15
CACCCGTA | -0.121

Set 2
Target: Phosphate system positive regulatory protein PHO4, full length, GST-tagged (PHO4, Saccharomyces cerevisiae, UniProt P07270, residues 1-312)
Technique: competition protein-binding microarray
Molecule type: double-stranded DNA, one strand shown
Medium: in vitro
Concentration: 2 µM
Setting: whole 60-bp probe, lowest competitor level
With: Cbf1 competitor, 0.05 µM
Direction: higher = stronger binding
Shared flanks, not repeated: … GTCTTGATTCGCTTGACGCTGCTG
Construct (chain): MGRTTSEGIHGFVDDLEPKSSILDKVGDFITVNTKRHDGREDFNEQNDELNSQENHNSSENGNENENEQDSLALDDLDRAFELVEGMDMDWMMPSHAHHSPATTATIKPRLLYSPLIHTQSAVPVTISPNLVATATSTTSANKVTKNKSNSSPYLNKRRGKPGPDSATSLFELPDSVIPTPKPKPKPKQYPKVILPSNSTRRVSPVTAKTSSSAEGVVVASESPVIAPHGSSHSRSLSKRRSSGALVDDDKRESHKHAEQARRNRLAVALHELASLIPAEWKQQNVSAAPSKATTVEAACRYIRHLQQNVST
Strand | fluorescence intensity [a.u.]
CGGGGTTAAGTTTTTCACGTGGCGTGCCGTCGGCAG | 10700
ACATATTTTAGAAAACACGTGAAGGATACGTAAATA | 15600
CTAACGAAGGTTTGACACGTGGGTGACAAGCCAAGT | 17600
AAATTACTAAGTTGTCATGTGGGTGACGCCGTATGA | 9330
CTTCTGTAAATTTGCCTGGTGGGTGGACGCGCCCCG | 4400
CATACCCAACCTTGACGAGTGGGTGAAGATATTTGT | 4730
GAGGCAAACCATCACCATGTGGTGGTTTCAACATGA | 9700
ACAGTTTCCCACTGTCACACTTCACTGTTGCATACT | 5580

Set 3
Target: Max dimerization protein 1, bHLH-zipper, MAX partner unstated (MXD1, Homo sapiens, UniProt Q05195, residues 56-136)
Technique: protein-binding microarray
Molecule type: double-stranded DNA, one strand shown
Medium: in vitro
Concentration: not given
Setting: k-mer, scored over probes, only values ≥0.25
Direction: higher = stronger binding
Target sequence (chain): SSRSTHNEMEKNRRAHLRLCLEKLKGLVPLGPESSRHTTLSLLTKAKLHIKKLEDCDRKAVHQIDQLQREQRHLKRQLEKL
Strand | E-score
ACGTGTAA | 0.348
CAGGAGGG | 0.274
ATCACGCC | 0.28
CGGCACGC | 0.289
GGGACAGA | 0.253
ATGACATG | 0.273
ATGGCACG | 0.299
AACGCACG | 0.356

Single results of other studies
Molecule | target | read-out | molecule type | concentration | quantity | result
FLCPTFTLK | HLA class I histocompatibility antigen, A alpha chain, allele A*26:03 (Homo sapiens, UniProt P04439) | peptide-MHC binding | peptide | concentration not given | binding | inactive

Excerpt of the above (set 2):
Strand | fluorescence intensity [a.u.]
CTTCTGTAAATTTGCCTGGTGGGTGGACGCGCCCCG | 4400
CATACCCAACCTTGACGAGTGGGTGAAGATATTTGT | 4730
GAGGCAAACCATCACCATGTGGTGGTTTCAACATGA | 9700
